Results collected from several papers.
Numbered parts are unrelated; each lists some results of a single study. Several values in a cell are separate wells, animals, samples, runs or records. pEC50: −log10 of the molar value.
UniProt Q9P286, sequence (whole entry, looked up): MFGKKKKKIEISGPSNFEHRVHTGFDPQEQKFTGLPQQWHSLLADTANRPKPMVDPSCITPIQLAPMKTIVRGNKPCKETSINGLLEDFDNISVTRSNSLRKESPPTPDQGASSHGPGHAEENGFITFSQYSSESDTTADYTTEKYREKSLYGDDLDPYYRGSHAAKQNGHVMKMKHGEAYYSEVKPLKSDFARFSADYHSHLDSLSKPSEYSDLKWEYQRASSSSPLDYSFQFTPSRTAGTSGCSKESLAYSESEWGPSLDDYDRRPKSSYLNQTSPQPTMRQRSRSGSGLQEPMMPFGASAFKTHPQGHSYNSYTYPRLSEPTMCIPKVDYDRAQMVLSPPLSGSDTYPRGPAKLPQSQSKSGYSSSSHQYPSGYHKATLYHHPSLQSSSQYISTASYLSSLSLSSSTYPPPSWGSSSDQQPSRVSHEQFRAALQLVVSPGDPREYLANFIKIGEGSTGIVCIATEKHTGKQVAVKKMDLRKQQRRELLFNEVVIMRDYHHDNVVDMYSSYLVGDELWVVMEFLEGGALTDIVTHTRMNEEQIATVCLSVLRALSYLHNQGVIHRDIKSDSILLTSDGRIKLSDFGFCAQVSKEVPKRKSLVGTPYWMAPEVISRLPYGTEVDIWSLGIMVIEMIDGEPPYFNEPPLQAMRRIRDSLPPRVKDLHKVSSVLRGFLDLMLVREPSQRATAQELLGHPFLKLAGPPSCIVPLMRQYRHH
UniProt Q9UK32, sequence (whole entry, looked up): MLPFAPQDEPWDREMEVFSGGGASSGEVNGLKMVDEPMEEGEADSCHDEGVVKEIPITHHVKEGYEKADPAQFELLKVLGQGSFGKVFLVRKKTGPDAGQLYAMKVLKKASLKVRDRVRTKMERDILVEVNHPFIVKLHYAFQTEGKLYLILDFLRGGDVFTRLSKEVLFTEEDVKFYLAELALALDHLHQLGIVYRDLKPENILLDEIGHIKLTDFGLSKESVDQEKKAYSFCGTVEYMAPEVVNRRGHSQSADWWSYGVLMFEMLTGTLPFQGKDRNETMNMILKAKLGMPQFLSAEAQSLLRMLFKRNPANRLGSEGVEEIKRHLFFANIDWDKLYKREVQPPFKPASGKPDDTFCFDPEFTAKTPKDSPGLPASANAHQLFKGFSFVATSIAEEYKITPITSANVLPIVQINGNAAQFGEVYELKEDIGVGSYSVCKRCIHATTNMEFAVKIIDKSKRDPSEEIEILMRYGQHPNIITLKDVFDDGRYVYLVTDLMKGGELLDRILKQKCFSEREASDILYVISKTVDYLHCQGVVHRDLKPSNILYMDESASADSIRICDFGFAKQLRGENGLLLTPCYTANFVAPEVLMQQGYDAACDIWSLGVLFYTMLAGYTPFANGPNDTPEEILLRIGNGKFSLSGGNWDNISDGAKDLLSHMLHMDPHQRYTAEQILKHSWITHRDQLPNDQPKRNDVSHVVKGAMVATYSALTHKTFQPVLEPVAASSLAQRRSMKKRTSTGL
UniProt Q8NE63, sequence (whole entry, looked up): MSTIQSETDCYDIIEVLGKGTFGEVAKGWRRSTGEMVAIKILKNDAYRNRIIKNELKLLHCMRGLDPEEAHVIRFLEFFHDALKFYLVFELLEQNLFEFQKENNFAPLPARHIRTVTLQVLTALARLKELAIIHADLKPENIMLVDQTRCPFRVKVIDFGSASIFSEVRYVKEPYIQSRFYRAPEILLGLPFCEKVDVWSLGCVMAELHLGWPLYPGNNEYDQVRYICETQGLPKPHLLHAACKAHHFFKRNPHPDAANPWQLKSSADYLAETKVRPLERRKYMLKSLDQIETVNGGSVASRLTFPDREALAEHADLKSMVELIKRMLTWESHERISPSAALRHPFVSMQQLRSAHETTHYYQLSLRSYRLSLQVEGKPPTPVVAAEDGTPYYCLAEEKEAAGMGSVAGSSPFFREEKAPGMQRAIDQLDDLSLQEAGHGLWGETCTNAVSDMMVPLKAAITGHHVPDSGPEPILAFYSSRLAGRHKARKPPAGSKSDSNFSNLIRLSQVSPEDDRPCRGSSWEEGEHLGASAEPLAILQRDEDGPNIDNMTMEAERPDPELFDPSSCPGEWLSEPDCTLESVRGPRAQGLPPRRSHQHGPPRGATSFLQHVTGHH
UniProt P42336, sequence (whole entry, unmodified, looked up): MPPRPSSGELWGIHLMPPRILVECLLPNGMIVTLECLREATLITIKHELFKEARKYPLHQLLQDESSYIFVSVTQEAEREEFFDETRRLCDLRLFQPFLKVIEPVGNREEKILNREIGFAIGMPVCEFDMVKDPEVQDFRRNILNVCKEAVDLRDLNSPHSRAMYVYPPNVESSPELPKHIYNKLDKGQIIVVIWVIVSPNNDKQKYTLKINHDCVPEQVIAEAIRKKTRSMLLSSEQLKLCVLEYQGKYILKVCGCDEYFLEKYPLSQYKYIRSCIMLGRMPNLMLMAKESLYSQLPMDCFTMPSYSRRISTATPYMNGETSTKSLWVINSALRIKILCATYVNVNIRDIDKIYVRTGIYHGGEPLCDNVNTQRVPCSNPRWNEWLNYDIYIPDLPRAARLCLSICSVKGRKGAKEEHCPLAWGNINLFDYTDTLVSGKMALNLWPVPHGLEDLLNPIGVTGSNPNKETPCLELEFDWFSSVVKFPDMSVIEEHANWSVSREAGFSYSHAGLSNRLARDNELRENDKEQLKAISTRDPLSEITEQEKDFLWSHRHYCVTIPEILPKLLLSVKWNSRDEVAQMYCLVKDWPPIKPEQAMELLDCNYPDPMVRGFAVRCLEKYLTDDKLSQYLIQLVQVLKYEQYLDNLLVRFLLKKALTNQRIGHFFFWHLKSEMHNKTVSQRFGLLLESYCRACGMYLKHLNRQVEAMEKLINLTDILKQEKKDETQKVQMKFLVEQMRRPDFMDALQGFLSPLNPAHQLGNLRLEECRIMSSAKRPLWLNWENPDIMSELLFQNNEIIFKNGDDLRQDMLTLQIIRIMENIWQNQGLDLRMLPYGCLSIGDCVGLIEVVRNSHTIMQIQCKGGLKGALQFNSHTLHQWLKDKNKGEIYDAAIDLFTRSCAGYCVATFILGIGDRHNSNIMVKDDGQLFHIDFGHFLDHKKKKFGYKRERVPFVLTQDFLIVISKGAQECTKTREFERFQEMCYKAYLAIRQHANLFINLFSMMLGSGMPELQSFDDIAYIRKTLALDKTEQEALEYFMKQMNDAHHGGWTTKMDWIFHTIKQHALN
UniProt P51812, sequence (whole entry, looked up): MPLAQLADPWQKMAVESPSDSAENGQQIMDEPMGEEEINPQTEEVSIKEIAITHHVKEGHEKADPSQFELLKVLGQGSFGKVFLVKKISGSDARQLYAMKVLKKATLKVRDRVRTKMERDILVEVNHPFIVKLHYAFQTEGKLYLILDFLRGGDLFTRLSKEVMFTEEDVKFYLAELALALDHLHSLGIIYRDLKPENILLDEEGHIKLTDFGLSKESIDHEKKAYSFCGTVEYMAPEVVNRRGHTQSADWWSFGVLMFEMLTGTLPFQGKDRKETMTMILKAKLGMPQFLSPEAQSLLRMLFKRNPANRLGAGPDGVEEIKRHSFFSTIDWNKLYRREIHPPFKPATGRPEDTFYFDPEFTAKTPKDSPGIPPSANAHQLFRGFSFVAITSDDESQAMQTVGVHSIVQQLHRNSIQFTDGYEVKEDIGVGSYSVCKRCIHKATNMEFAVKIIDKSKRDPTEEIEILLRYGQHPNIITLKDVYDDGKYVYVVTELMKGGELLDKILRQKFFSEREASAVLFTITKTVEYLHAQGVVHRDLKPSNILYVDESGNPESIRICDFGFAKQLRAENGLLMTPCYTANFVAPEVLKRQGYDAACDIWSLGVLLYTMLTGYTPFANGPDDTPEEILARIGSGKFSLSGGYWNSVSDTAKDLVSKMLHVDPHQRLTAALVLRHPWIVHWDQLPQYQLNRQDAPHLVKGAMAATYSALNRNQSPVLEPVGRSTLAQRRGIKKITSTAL
UniProt O94804, sequence (whole entry, looked up): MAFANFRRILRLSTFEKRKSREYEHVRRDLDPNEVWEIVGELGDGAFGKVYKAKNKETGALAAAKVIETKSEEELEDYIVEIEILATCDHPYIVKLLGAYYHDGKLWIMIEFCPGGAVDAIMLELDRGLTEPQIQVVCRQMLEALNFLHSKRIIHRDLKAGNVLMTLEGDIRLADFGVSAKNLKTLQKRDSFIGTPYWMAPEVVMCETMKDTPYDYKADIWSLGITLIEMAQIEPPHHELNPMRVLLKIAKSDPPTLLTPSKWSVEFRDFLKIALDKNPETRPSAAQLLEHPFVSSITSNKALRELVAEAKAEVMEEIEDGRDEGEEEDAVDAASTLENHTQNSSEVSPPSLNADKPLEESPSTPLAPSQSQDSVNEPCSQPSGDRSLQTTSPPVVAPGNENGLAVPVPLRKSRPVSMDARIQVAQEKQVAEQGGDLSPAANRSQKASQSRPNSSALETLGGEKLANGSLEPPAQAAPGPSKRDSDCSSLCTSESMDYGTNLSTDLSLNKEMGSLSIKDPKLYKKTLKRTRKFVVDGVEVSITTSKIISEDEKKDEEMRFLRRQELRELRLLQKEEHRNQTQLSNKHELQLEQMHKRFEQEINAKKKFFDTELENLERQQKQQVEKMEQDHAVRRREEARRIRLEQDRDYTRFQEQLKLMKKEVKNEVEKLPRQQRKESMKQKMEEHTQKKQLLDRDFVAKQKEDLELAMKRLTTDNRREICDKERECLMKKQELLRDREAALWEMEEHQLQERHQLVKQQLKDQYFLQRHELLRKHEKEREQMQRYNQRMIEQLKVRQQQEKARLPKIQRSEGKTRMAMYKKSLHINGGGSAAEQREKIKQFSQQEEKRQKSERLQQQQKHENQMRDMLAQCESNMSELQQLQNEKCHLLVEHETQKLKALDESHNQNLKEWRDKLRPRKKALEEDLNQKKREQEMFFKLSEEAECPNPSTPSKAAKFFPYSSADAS

Study 1 — cell line: mouse MPNST tumor cells; method: high-content nuclear imaging; refers to: cell number; tested at: 10 µM; time: 12 h; setting: mean of 2 replicates; baseline: plate mean; reading: higher = more cells; measurement: nuclei count
COc1cc2c(cc1OCCCN1CCCC1)N=C(N)C21CCC1: 0.89 z-score and 5.38 z-score
C/C=C(/C(=C/C)c1ccc(O)cc1)c1ccc(O)cc1: 0.175 z-score
COc1ccccc1OCCNCC(O)COc1cccc2[nH]c3ccccc3c12 (stereo not drawn): -2.88 z-score
COC(=O)C1=C(C#N)NC(C)=C(C(=O)OC(C)C)C1c1cccc([N+](=O)[O-])c1 (stereo not drawn): -0.299 z-score

Study 2 — species: human; matrix: microsomes or S9; tested at: 2 µM; time: 0.5 h; measurement: remaining compound
CCNC(=O)Nc1ccc2c(cnn2-c2cc(C(C)=O)c(Cl)cc2Cl)c1: > 100%
Cc1c(Cl)cccc1-c1ccc(CNCCN(C)C)o1: 41.4%
C=C(C)C1Cc2c(C)nn(-c3cccc4ccccc34)c2C1 (stereo not drawn): 1.88%
Cc1ccc(C(=O)/N=c2\c(C)cccn2C(=O)c2ccc(C)o2)o1: 1.02%

Study 3 — observed: cell-free assay; method: competition with immobilised ligand; tested at: 1 µM; measurement: remaining binding
SMILES: CNCc1ccccc1-c1csc([C@@H](C)Nc2nc(C)nc3cc(OC)c(OC)cc23)c1
Ribosomal protein S6 kinase alpha-6, C-terminal kinase domain (RPS6KA6, Homo sapiens, UniProt Q9UK32): 100%
ITK (Homo sapiens, UniProt Q08881): 100%
ACVR2B (Homo sapiens, UniProt Q13705): 100%
PAK5 (Homo sapiens, UniProt Q9P286): 95%
MINK1 (Homo sapiens, UniProt Q8N4C8): 57%
PHKG1 (Homo sapiens, UniProt Q16816): 83%
MAP4K1 (Homo sapiens, UniProt Q92918): 83%
STK10 (Homo sapiens, UniProt O94804): 95%
ALK (Homo sapiens, UniProt Q9UM73, L1196M): 100%
HIPK4 (Homo sapiens, UniProt Q8NE63): 86%
FLT1 (Homo sapiens, UniProt P17948): 87%
Non-receptor tyrosine-protein kinase TYK2, JH2 (TYK2, Homo sapiens, UniProt P29597): 71%
PIK3CA (Homo sapiens, UniProt P42336, H1047Y): 100%
FLT3 (Homo sapiens, UniProt P36888, D835V/ITD): 48%
Ribosomal protein S6 kinase alpha-3, C-terminal kinase domain (RPS6KA3, Homo sapiens, UniProt P51812): 76%

Study 4 — organism: Sarcocystis neurona; observed: parasite activity; tested at: 10 µM; time: 96 h; measurement: activity class
C#C[C@]1(O)CC[C@H]2[C@@H]3[C@H](C)CC4=C(CCC(=O)C4)[C@H]3CC[C@@]21C: inactive
CCOC(=O)[C@H](CCc1ccccc1)N[C@H]1CCc2ccccc2N(CC(=O)O)C1=O: inactive
CN(C)CCCN1c2ccccc2Sc2ccc(Cl)cc21: inactive
Cc1nc2ccccn2c(=O)c1CCN1CCC(C(=O)c2ccc(F)cc2)CC1: inactive

Further values, each from its own experiment
CC(C)(C)c1cnc(CSc2cnc(NC(=O)C3CCN(CCCCCSc4cccc5c4CN(C4CCC(=O)NC4=O)C5=O)CC3)s2)o1 (stereo not drawn)  viability (HuT78; cell growth or viability, trypan blue; 1 µM, 48 h): 7.61%
CC(C)n1cnc(-c2ccc(F)cc2)c1-c1ncc(C(=O)Nc2ccc(N3CCN(C)CC3)cc2)[nH]1  patients with weight decreased TEAE (phase 2a clinical trial; patients with idiopathic pulmonary fibrosis; 30 mg once daily): 0%
Cc1cc2c(OCC(CNC(C)(C)C)OC(=O)c3ccccc3)cccc2[nH]1 (stereo not drawn)  pEC50 (ADRB1 (Homo sapiens, UniProt P08588)): 6.28

Some of these lines once more (study 4):
Cc1nc2ccccn2c(=O)c1CCN1CCC(C(=O)c2ccc(F)cc2)CC1: inactive
CCOC(=O)[C@H](CCc1ccccc1)N[C@H]1CCc2ccccc2N(CC(=O)O)C1=O: inactive
C#C[C@]1(O)CC[C@H]2[C@@H]3[C@H](C)CC4=C(CCC(=O)C4)[C@H]3CC[C@@]21C: inactive
